Assay results gathered from unrelated publications.
Lines come from different studies, so protocols differ. Values joined by “and” are separate records of one study, mostly repeats; a detail may differ. Numbers after ± are the reported error.
U2AF2: U2AF2 148-342 (Homo sapiens, UniProt P26368)
UniProt P26368, sequence (whole entry, looked up): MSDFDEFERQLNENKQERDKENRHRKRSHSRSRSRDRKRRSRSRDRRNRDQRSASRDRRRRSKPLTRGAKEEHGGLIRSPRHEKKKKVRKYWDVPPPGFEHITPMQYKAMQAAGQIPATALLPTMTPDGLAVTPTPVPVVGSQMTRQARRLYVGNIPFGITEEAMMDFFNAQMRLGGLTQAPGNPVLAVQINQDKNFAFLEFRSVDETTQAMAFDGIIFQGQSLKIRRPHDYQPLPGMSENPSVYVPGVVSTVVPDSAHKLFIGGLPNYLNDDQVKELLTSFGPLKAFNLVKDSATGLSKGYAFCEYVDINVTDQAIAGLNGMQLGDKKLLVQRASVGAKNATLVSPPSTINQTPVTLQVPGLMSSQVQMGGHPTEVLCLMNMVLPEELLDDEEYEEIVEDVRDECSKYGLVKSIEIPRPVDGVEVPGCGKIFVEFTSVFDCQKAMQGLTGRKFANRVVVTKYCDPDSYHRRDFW
B1: human sideroflexin-3; sequence looked up; chain MGELPLDINIQEPRWDQSTFLGRARHFFTVTDPRNLLLSGAQLEASRNIVQNYRAGVVTPGITEDQLWRAKYVYDSAFHPDTGEKVVLIGRMSAQVPMNMTITGCMLTFYRKTPTVVFWQWVNQSFNAIVNYSNRSGDTPITVRQLGTAYVSATTGAVATALGLKSLTKHLPPLVGRFVPFAAVAAANCINIPLMRQRELQVGIPVADEAGQRLGYSVTAAKQGIFQVVISRICMAIPAMAIPPLIMDTLEKKDFLKRRPWLGAPLQVGLVGFCLVFATPLCCALFPQKSSIHISNLEPELRAQIHEQNPSVEVVYYNKGL
B2: human RAB1A; sequence looked up; chain SSMNPEYDYLFKLLLIGDSGVGKSCLLLRFADDTYTESYISTIGVDFKIRTIELDGKTIKLQIWDTAGQERFRTITSSYYRGAHGIIVVYDVTDQESFNNVKQWLQEIDRYASENVNKLLVGNKCDLTTKKVVDYTTAKEFADSLGIPFLETSAKNATNVEQSFMTMAAEIKKRMGPGATAGGAEKSNVKIQSTPVKQSGGGCC
B3: human calpain-1; sequence looked up; chain SEEIITPVYCTGVSAQVQKQRARELGLGRHENAIKYLGQDYEQLRVRCLQSGTLFRDEAFPPVPQSLGYKDLGPNSSKTYGIKWKRPTELLSNPQFIVDGATRTDICQGALGDCWLLAAIASLTLNDTLLHRVVPHGQSFQNGYAGIFHFQLWQFGEWVDVVVDDLLPIKDGKLVFVHSAEGNEFWSALLEKAYAKVNGSYEALSGGSTSEGFEDFTGGVTEWYELRKAPSDLYQIILKALERGSLLGCSIDISSVLDMEAITFKKLVKGHAYSVTGAKQVNYRGQVVSLIRMRNPWGEVEWTGAWSDSSSEWNNVDPYERDQLRVKMEDGEFWMSFRDFMREFTRLEICNLTPDALKSRTIRKWNTTLYEGTWRRGSTAGGCRNYPATFWVNPQFKIRLDETDDPDDYGDRESGCSFVLALMQKHRRRERRFGRDMETIGFAVYEVPPELVGQPAVHLKRDFFLANASRARSEQFINLREVSTRFRLPPGEYVVVPSTFEPNKEGDFVLRFFSEKSAGTVELDDQIQANLPDEQVLSEEEIDENFKALFRQLAGEDMEISVKELRTILNRIISKHKDLRTKGFSLESCRSMVNLMDRDGNGKLGLVEFNILWNRIRNYLSIFRKFDLDKSGSMSAYEMRMAIESAGFKLNKKLYELIITRYSEPDLAVDFDNFVCCLVRLETMFRFFKTLDTDLDGVVTFDLFKWLQLTMFA
UniProt P13393, sequence (whole entry, looked up): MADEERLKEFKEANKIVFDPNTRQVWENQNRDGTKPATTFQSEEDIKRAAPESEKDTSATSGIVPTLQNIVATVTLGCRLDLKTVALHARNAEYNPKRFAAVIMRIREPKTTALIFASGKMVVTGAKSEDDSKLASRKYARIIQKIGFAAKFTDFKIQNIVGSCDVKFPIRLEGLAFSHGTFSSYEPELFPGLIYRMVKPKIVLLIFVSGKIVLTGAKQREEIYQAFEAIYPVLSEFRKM

| Substance | tested on | test | system | setting | scale | quantity | result |
| --- | --- | --- | --- | --- | --- | --- | --- |
| colistin | Pseudomonas aeruginosa | – | clinical isolate RKI 82/10 | – | – | MIC | ≤ 1 µg/mL |
| human HUWE1 | CYB5R4 knockout human cells | PP4 interaction, 3xFLAG-PP4C IP-MS | – | concentration not given | baseline: CYB5R4 KO over parental | log2 fold change | 0.75 |
| UCUUUUUUU (ssRNA) | U2AF2 | sequencing of bound RNA | RNA | motif only | – | Kd | 620 nM |
| difelikefalin | – | – | Japanese haemodialysis patients with pruritus | intravenous, 0.25 µg/kg, 8 weeks | – | PGIC no change | 11.5% |
| B1 (human sideroflexin-3) | CYB5R4 knockout human cells | PP4 interaction, 3xFLAG-PP4C IP-MS | – | concentration not given | baseline: CYB5R4 KO over parental | log2 fold change | 2.38 |
| TGGATCAATCGTATAAAGAGAATTCCTGGTATGGATCAAGTCAATCGGTCC (dsDNA; 5'-amino-C6 primer) | SPT15 full length assumed (Saccharomyces cerevisiae, UniProt P13393) | array | double-stranded DNA, one strand shown | TBP alone | – | Kd | 4.23 ± 0.4 nM |
| MVDPIGLNY | Jurkat expressing engineered TCR | NFAT-eGFP reporter, fluorescence microscopy | peptide | concentration not given, HLA-A*01:01 on EL4 cells | – | GFP-positive cells | 0.444% |
| GUUUCGUAC (ssRNA) | U2AF2 | sequencing of bound RNA | RNA | motif only | – | Kd | 4840 nM |
| GSGAGSETVV | construct, MBP fusion, human SCRIB, PDZ 3-4 | automated holdup | peptide, purified PDZ protein | concentration not given, unit not given | baseline: biotin control resin, higher = stronger binding | binding intensity | -0.0265 |
| human ME2 I58F | – | enzyme activity, NADH absorbance | – | with fumarate 3 mM, added: L-malate varied | – | Hill coefficient | 1.31 ± 0.13 |
| Peginesatide | UT7/EPO | tyrosine phosphorylation, LC-MS/MS phosphoproteomics, GluC, item: GAB3 tyrosine 183 | – | 10 nM, 15 min, added: 10 U/mL EPO | baseline: vehicle | phosphorylation level | 9.2 fold |
| B2 (human RAB1A) | CYB5R4 knockout human cells | PP4 interaction, 3xFLAG-PP4C IP-MS | – | concentration not given | baseline: CYB5R4 KO over parental | log2 fold change | -2.36 |
| VVVGACGVGK | HLA-A*11:01 peptide-β2M single-chain trimer | western blot, item: pMHC-I | peptide, 293T cells | 60 h, unit not given, added: 100 µg/mL cycloheximide | baseline: time zero | remaining protein | 0.671 and 0.655 and 0.663 |
| TASPAKETSF | construct, MBP fusion, human SCRIB, PDZ 3-4 | automated holdup | peptide, crude extract | concentration not given, corrected by standard peak, unit not given | baseline: biotin control resin, higher = stronger binding | binding intensity | 0.731 |
| epoetin alfa | UT7/EPO | microarray, item: EGR4 (probe 207767_s_at) | – | 5 U/mL, 90 min, added: SCF 10 nM | baseline: vehicle | mRNA level | 3.5 fold |
| B3 (human calpain-1) | CYB5R4 knockout human cells | PP4 interaction, 3xFLAG-PP4C IP-MS | – | concentration not given | baseline: CYB5R4 KO over parental | log2 fold change | 0.3 |
| GSGAGKESYV | construct, MBP fusion, human SCRIB, PDZ 3-4 | automated holdup | peptide, crude extract | concentration not given, uncorrected, unit not given | baseline: biotin control resin, higher = stronger binding | binding intensity | 0.235 |

A few entries again:
| Substance | tested on | test | system | setting | scale | quantity | result |
| --- | --- | --- | --- | --- | --- | --- | --- |
| difelikefalin | – | – | Japanese haemodialysis patients with pruritus | intravenous, 0.25 µg/kg, 8 weeks | – | PGIC no change | 11.5% |
